Published values from different studies.
A part holds a random share of what one study measured. Several values in a cell are separate wells, animals, samples, runs or records.
Chain of UniProt Q14289 (whole entry, looked up): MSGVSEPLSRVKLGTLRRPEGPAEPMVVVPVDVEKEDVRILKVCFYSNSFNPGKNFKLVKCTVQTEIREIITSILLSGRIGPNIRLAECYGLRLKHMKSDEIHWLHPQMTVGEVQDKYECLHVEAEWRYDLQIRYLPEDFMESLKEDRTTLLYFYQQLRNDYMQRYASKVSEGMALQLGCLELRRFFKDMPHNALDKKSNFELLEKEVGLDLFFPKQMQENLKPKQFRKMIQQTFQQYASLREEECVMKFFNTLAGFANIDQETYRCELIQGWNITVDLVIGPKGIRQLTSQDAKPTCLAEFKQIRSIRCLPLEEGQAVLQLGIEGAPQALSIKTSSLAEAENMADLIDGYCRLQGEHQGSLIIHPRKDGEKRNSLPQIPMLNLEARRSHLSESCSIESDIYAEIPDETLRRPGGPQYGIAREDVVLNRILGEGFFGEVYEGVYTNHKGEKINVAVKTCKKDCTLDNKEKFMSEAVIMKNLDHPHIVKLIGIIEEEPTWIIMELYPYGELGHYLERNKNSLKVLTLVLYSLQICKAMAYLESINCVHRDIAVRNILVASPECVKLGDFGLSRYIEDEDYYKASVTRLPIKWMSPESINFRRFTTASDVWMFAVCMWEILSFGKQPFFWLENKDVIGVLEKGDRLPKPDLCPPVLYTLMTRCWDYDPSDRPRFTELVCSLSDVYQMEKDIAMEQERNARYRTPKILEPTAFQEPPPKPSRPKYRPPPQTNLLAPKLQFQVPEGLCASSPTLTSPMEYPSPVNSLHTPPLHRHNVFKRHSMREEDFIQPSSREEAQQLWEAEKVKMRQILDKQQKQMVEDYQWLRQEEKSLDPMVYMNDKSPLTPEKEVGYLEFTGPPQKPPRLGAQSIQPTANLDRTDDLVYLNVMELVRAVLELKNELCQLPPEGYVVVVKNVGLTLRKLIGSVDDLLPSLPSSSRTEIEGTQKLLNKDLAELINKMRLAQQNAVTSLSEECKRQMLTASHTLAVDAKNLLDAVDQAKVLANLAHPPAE
Chain of UniProt P27448 (whole entry, looked up): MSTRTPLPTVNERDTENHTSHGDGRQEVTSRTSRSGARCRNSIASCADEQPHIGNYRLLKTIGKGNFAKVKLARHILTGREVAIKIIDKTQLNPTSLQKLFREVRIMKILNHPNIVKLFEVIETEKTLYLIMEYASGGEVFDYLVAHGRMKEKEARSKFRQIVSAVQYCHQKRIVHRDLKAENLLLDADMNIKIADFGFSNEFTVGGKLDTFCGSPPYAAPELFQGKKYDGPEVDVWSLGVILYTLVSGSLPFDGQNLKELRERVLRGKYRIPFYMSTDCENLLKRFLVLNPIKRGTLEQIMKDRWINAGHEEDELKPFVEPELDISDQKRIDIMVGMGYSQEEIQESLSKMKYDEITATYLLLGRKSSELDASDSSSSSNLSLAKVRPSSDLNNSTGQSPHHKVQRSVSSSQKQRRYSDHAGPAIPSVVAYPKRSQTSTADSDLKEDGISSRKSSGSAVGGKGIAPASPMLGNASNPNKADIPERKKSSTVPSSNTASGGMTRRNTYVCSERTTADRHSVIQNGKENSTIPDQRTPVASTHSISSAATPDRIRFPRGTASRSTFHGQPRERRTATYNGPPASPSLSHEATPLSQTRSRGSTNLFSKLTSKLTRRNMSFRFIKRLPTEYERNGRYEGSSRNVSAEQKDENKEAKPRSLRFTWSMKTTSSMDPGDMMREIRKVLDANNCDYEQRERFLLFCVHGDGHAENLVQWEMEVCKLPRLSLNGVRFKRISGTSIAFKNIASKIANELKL
Chain of UniProt P11802 (whole entry, looked up): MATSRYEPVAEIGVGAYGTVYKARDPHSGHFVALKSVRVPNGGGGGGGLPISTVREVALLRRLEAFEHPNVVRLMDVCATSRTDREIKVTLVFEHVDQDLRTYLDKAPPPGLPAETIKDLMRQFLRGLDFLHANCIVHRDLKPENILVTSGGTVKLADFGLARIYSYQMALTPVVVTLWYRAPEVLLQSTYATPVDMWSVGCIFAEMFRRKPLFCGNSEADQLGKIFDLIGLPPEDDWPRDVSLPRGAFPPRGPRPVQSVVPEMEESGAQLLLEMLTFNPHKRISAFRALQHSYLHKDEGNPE

Study 1
Compound: Cc1nc2c([nH]1)c(=O)[nH]c(=S)n2Cc1cccc(OC/C(=C/F)CN)c1
Observed: enzyme activity
Action: inhibitor
Method: fluorescence
Quantity: inhibition
MPO: Myeloperoxidase (MPO, Homo sapiens, UniProt P05164)
Chain of UniProt P05164 (whole entry, looked up): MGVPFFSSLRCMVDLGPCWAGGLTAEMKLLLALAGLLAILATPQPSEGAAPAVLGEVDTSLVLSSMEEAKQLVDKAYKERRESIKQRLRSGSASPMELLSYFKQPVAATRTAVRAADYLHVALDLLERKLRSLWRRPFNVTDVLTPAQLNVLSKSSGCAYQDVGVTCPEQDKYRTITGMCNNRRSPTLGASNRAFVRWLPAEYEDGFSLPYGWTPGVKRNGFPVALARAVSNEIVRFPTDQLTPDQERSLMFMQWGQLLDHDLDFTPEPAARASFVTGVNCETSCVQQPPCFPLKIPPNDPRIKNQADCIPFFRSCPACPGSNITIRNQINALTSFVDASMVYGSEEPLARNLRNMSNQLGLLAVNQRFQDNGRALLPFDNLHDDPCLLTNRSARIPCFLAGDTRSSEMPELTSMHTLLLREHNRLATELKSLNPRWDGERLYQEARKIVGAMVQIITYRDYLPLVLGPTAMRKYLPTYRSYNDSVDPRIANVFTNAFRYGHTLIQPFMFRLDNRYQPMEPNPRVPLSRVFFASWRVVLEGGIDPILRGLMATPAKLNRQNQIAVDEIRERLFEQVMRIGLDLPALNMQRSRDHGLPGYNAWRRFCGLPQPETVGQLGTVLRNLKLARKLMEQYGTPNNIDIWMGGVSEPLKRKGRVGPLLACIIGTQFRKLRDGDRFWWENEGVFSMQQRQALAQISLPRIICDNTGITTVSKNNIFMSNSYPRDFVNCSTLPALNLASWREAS
AOC3: Amine oxidase [copper-containing] 3 (AOC3, Homo sapiens, UniProt Q16853)
Chain of UniProt Q16853 (whole entry, looked up): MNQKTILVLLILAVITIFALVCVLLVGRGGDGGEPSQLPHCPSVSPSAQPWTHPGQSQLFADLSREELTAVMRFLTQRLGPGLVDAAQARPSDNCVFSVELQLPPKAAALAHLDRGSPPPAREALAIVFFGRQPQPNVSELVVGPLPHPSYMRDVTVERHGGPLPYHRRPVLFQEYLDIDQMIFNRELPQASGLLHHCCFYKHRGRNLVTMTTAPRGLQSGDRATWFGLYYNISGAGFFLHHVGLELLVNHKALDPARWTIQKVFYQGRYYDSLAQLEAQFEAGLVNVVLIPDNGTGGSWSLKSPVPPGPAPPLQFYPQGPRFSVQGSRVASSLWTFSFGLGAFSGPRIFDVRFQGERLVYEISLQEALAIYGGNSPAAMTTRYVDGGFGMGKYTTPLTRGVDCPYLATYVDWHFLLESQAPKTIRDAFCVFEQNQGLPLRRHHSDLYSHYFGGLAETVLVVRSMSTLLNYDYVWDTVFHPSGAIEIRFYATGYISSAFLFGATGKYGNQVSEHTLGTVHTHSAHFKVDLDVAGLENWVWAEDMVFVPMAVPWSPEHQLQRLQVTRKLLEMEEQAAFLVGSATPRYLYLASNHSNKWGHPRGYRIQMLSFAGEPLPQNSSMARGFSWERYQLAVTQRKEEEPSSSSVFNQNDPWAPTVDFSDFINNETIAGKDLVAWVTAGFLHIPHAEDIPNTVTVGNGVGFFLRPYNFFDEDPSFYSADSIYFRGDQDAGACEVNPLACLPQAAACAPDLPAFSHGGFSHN
MPO; 41.2 nM: -0.15%
MPO; 15 µM: 99.8% and 98.9%
MPO; 4.6 nM: -7.9%
AOC3; 0.1235 µM: 93.9% and 85.2% and 84.8% and 94.5%
MPO; 10 µM: 94.9%
AOC3; 1.111 µM: 96.3% and 99.7% and 98.5% and 99.5%
MPO; 0.5556 µM: 42.1% and 28.1%
MPO; 800 pM: -8.65% and -17.7%

Study 2
SMILES: O=C(Nc1ccccc1)Nc1cccc(Oc2ccc3nccn3n2)c1
Quantity: remaining binding
CDC42BPG (Homo sapiens, UniProt Q6DT37); DiscoverX cell-free binding; 1000 nM: 100%
HIPK3 (Homo sapiens, UniProt Q9H422); binding, competition with immobilised ligand; 1 µM: 100%
Cyclin-dependent kinase 4, with cyclin D3 (CDK4, Homo sapiens, UniProt P11802); binding; 1 µM: 100%
TNIK (Homo sapiens, UniProt Q9UKE5); binding, competition with immobilised ligand; 1 µM: 93%
ROCK2 (Homo sapiens, UniProt O75116); binding; 1 µM: 100%
Tyrosine-protein kinase ABL1, phosphorylated (ABL1, Homo sapiens, UniProt P00519); binding, competition with immobilised ligand; 1 µM: 94%
ERBB2 (Homo sapiens, UniProt P04626); binding, competition with immobilised ligand; 1 µM: 62%
EGFR (Homo sapiens, UniProt P00533, del746-750); binding; 1 µM: 52%
Tyrosine-protein kinase JAK3, JH1 (JAK3, Homo sapiens, UniProt P52333); cell-free assay, competition with immobilised ligand; 1 µM: 100%
MAP4K3 (Homo sapiens, UniProt Q8IVH8); binding, competition with immobilised ligand; 1 µM: 91%
PTK2B (Homo sapiens, UniProt Q14289); binding; 1 µM: 40%

Study 3
Compound: C[C@@H]1CN(c2ccc(-c3cc(C(=O)NCCOCCOCCOCCOCCNC(=O)Cn4cc(-c5[nH]cc(C(=O)N[C@@H](CC(N)=O)c6ccc(F)c(Cl)c6)c5-c5ccc(Cl)cc5F)cn4)ccc3F)cc2NC(=O)c2c[nH]c(=O)cc2C(F)(F)F)C[C@H](C)N1C
Observed: thermal unfolding
Method: differential scanning fluorimetry
Tested at: 5.5 µM
Direction: higher = more unfolded
Quantity: SYPRO Orange fluorescence
WDR5: WD repeat-containing protein 5 (WDR5, Homo sapiens, UniProt P61964)
DCAF1: DDB1- and CUL4-associated factor 1 (DCAF1, Homo sapiens, UniProt Q9Y4B6)
Chain of UniProt Q9Y4B6 (whole entry, looked up): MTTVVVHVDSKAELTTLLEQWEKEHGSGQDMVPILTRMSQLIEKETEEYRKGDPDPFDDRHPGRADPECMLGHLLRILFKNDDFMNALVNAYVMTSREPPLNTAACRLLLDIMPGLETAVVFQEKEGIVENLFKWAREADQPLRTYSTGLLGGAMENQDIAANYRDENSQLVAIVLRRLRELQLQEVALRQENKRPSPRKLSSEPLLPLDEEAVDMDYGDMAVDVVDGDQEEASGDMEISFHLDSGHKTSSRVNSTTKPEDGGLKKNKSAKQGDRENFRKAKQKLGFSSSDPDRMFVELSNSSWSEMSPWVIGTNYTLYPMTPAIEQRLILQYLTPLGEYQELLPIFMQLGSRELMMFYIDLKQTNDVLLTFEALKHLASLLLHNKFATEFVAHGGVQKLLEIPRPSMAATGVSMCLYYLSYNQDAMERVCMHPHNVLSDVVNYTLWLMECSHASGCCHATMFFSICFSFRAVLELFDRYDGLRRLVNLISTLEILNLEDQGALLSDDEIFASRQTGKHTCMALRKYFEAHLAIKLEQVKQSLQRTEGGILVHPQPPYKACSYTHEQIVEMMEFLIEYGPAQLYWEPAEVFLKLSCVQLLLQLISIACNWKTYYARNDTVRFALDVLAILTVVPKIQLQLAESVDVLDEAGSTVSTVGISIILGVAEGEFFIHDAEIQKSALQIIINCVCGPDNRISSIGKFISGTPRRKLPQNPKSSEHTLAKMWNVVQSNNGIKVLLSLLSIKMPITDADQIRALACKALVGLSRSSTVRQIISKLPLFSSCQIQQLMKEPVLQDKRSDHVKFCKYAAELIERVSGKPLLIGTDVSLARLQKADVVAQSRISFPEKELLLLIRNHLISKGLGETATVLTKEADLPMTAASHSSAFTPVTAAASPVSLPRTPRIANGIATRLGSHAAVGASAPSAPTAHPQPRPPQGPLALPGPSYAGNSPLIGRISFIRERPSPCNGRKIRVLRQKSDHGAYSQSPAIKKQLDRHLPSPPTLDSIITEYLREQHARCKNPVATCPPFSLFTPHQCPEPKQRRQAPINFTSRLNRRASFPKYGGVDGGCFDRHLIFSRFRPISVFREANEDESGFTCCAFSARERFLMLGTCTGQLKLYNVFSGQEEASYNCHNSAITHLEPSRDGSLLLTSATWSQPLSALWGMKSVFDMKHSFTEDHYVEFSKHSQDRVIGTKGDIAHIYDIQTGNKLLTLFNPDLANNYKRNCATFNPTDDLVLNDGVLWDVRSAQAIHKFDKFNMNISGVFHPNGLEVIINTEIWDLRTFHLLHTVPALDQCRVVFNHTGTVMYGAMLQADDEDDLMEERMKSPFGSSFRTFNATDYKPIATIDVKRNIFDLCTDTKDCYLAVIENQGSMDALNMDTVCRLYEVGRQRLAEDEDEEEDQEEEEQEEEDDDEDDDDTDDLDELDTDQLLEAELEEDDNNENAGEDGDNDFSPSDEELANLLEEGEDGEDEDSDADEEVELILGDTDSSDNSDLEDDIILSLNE
WDR5; 57.01 °C: 12600 a.u.
WDR5; 57.21 °C: 12400 a.u.
WDR5; 64.01 °C: 8170 a.u.
DCAF1; 31.4 °C: 8270 a.u.
WDR5; 76.21 °C: 13300 a.u.
DCAF1; 86.81 °C: 38000 a.u.
DCAF1; 50.8 °C: 15100 a.u.
DCAF1; 68.41 °C: 55800 a.u.
WDR5; 61.21 °C: 9720 a.u.
WDR5; 79.61 °C: 22100 a.u.
WDR5; 38.8 °C: 14400 a.u.

Study 4
SMILES: CN(C1COC1)C(C)(C)/C=C(\C#N)C(=O)N1CCC[C@H]1Cn1nc(-c2ccc(Oc3ccccc3)cc2F)c2c(N)ncnc21
Observed: kinase activity
Quantity: inhibition
Mitogen-activated protein kinase kinase kinase 7, with TAB1 (MAP3K7, Homo sapiens, UniProt O43318); 1 µM: 1%
Protein kinase C beta type, isoform beta-II (PRKCB, Homo sapiens, UniProt P05771); 1 µM: 3%
BLK (Homo sapiens, UniProt P51451); 1 µM: 91%
CAMK4 (Homo sapiens, UniProt Q16566); 0.1 µM: 4%
PTK2B (Homo sapiens, UniProt Q14289); 0.1 µM: 1%
SRPK1 (Homo sapiens, UniProt Q96SB4); 0.1 µM: 0%
MST1R (Homo sapiens, UniProt Q04912); 0.1 µM: 0%
PRKCZ (Homo sapiens, UniProt Q05513); 0.1 µM: 3%
EPHA4 (Homo sapiens, UniProt P54764); 0.1 µM: 2%
DYRK1A (Homo sapiens, UniProt Q13627); 0.1 µM: 2%
SPHK1 (Homo sapiens, UniProt Q9NYA1); 1 µM: -5%
MARK3 (Homo sapiens, UniProt P27448); 1 µM: 0%
HIPK3 (Homo sapiens, UniProt Q9H422); 1 µM: 2%
HIPK4 (Homo sapiens, UniProt Q8NE63); 1 µM: 2%

Excerpt of the above (study 3):
WDR5; 57.01 °C: 12600 a.u.
DCAF1; 50.8 °C: 15100 a.u.
WDR5; 79.61 °C: 22100 a.u.
